Measured values of several laboratories.
Numbered parts are unrelated; each lists some results of a single study. Changes are numbered by the printed parent chain.

Sample 1
Target: ABI1, truncated, D143A, DHFR fusion (Arabidopsis thaliana)
Technique: DHFR PCA, deep sequencing
Matrix: yeast
Setting: methotrexate growth selection, single substitutions
Together with: (+)-ABA 0.11 µM
Relative to: wild-type fitted maximum
Reading: higher = stronger binding
Quantity: relative binding score
Parent: PYL1, truncated, DHFR fusion (Arabidopsis thaliana); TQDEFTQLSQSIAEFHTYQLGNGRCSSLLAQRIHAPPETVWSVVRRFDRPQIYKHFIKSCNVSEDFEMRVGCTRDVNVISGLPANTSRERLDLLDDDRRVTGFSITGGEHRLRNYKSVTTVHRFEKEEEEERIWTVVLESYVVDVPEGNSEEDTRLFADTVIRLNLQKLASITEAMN; partner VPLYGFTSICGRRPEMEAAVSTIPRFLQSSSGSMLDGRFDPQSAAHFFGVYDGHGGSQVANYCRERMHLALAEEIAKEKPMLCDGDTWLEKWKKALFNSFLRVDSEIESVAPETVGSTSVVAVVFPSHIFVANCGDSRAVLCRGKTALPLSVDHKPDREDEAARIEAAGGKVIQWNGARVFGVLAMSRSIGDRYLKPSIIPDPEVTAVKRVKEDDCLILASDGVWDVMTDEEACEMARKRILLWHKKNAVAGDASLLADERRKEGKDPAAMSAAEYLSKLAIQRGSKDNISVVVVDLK
E89C: -1.81%
E130Y: 7.13%
V121S: -0.807%
V118L: -4.96%
S140T: 0.625%

Sample 2
Target: Ras GTPase-activating protein-binding protein 1, full length (G3BP1, Homo sapiens, UniProt Q13283)
Sequence of UniProt Q13283 (whole entry, looked up): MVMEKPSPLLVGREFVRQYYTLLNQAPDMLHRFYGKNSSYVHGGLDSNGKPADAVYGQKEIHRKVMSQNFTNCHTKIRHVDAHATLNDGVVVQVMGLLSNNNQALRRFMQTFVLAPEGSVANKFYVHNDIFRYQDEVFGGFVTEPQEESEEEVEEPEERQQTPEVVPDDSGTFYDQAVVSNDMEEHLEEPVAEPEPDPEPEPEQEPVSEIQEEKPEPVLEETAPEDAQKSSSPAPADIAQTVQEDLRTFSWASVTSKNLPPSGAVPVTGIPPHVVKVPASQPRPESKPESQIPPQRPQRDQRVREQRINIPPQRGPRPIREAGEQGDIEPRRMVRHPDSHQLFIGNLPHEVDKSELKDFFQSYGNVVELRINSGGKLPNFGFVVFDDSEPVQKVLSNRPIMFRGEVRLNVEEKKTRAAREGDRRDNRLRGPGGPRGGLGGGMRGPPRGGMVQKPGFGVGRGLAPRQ
Technique: RNA Bind-n-Seq
Form: RNA
Matrix: in vitro
Concentration: 200 nM
Setting: whole 134-nt RNA, ends assumed
Together with: 150 mM LiCl
Relative to: input library
Reading: higher = stronger binding
Quantity: log2 enrichment
Library: 7-deaza-guanosine replaces G
Shared flanks, not repeated: GGGAGUUCUACAGUCCGACGAUC … UGGAAUUCUCGGGUGUCAAGG
UGUGCUACACAUCGUAUGUACCGAAUCGGGGUUUUUUUGGGUUUUUUUGGGGUUUUUUUGGGGAAAGUAUUAUGUUACGCCGUUCGGAUC: 1.94
AUUUUUUGUAUCAAGUCCCUGAAUGGAAGUAUGACGUUGGGUCCCUCUGAAGUUUAAUUCUGAGUUCUCAUUAAAAGAAAUUUGCUUUCA: -1.9
UGGCCCUGGUGGCAUGCGGGGAGGAAGAGGUGGCCUCAUGGAUCGUGGUGGUCCCGGGGGAAUGUUCAGAGGUGGCCGUGGUGGAGACAG: -0.252
GCAGGAAGUAAAAACAAAUGGAAAUGCUUCGGAUAGUGGCAGGGGUGGGGGUUGCUAAGGAAAGGGUGGGAUGGGAGUGGGUAAAGAGGU: 0.162
UAACUUUAGAGGAGGAUCUGAUGGAUGUGGCAGUGGACGUGGAUUUGGGGAUGGCUAUAAUGGGUAUGGAGGAGGACCUGGAGGUGGCAA: 0.111
ACCAUGCAGGUGGGCAUCUUUGGGAAGUGGGGCAAGGGGGGGAUAGGGAGGGGGGUAACACUUUGGGAACAGGUGGUCCCAAGUCGUUUC: 0.306

Sample 3
Target: CCNB1, cyclin fold, Cln2 fusion (human)
Technique: yeast growth competition, sequencing
Matrix: yeast
Setting: strong parent motif
Relative to: not given
Reading: higher = stronger binding
Quantity: normalised enrichment score
Parent: E2F1 docking peptide (human); PPVKRRLDFETDH; partner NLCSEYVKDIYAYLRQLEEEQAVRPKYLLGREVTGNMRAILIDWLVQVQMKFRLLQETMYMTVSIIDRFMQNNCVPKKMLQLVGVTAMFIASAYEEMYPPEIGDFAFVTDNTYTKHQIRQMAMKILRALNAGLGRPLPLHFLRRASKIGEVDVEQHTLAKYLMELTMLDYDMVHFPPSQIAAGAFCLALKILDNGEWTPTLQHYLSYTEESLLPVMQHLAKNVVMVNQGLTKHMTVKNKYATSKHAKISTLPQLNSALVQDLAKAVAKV
PPVKRRLDFETTH [D12T]: 4.79
PPVKRRLSFETDH [D8S]: 4.68
PPVKRELDFETDH [R6E]: 2.66
PPVKRLLDFETDH [R6L]: 1.79
PPVKRVLDFETDH [R6V]: 3.32
PPVKRRMDFETDH [L7M]: 0.685
PPVKRRLDFEKDH [T11K]: 4.62
PPVKRRLLFETDH [D8L]: 4.36
PPVKRRLDFESDH [T11S]: 5.54

Mixed results
PhoQ, residues 284 288 289 292 302 303 ALSMDL  fold induction (PhoP, residues 12 14 15 18 19 LYFRQ (Escherichia coli, UniProt P23836); Sort-seq, refers to: YFP reporter; E. coli; PhoQ-PhoP variant library, together with: 10 µM Mg2+; relative to: high Mg2+ state, higher = stronger signaling): 3.41

A few entries again (sample 2):
AUUUUUUGUAUCAAGUCCCUGAAUGGAAGUAUGACGUUGGGUCCCUCUGAAGUUUAAUUCUGAGUUCUCAUUAAAAGAAAUUUGCUUUCA: -1.9
UGGCCCUGGUGGCAUGCGGGGAGGAAGAGGUGGCCUCAUGGAUCGUGGUGGUCCCGGGGGAAUGUUCAGAGGUGGCCGUGGUGGAGACAG: -0.252
